Published values of several laboratories.
A part holds a random share of what one study measured. Positions count from the first letter of the parent shown.

Sample 1 — method: universal PBM; molecule type: double-stranded DNA, one strand shown; matrix: in vitro; tested at: not given; reading: higher = stronger binding
Target: Sal-like protein 4, full length isoform B (SALL4, Homo sapiens, UniProt Q9UJQ4-2, residues 1-616)
Setting: 8-mer, flanks averaged, mean of replicates
`TCAGACAA` has an E-score of -0.0115.
`ACGATTCG` has an E-score of -0.0354.
For `AGCGTTGG`, the E-score was -0.165.
`ACGATGGA` has an E-score of 0.0155.
With `GACTGAAC` the E-score was -0.195.
`ATTGCGTC` gave an E-score of 0.0901.
`GCGGGGGA` has an E-score of -0.225.
With `GGATGCTA` the E-score was -0.136.
For `GGTGACAC`, the E-score was -0.186.
For `AGGCATGA`, the E-score was -0.0591.
With `CAATCTCA` the E-score was 0.0418.
`AAGGCGCC` gave an E-score of -0.263.
For `CAGGCTCA`, the E-score was -0.0914.
`TATGGTGA` gave an E-score of 0.0735.
With `CAAGCGGG` the E-score was -0.277.
For `AATACAAC`, the E-score was 0.247.
For `CGGACGCC`, the E-score was -0.39.
`ACTCCGTA` gave an E-score of -0.105.
The E-score of `CAAGTAGA` is reported as -0.069.
`GAATTCCA` has an E-score of 0.164.
With `AGCAAGTC` the E-score was -0.132.
`GGACAATA` gave an E-score of 0.166.
With `AACTCAGA` the E-score was 0.0127.
With `AGAGTACA` the E-score was 0.0799.
`AACTGCCG` gave an E-score of -0.128.

Sample 2 — method: RNA Bind-n-Seq; molecule type: RNA; matrix: in vitro; tested at: 365 nM; relative to: no-protein control; reading: higher = stronger binding
Target: RNA binding protein fox-1 homolog 2, RRM domain, GST-SBP tag (RBFOX2, Homo sapiens, UniProt O43251-10, residues 100-194)
Setting: natural RNA segment, single round, ends assumed
Constant ends, left off below: GGGAGUUCUACAGUCCGACGAUC … UGGAAUUCUCGGGUGCCAA
Residues (chain): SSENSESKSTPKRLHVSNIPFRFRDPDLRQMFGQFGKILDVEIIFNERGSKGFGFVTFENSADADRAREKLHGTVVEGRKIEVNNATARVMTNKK
Under “RBNS enrichment (R)”, `UCACUGUAAUGGUGCUAUUAACAAACAGUCAACACCAUUGUAUUUUUUAACUUCGUGUUCUGUAUCUCCUCAGCCAUGUAUCUUAAAUAUAUUUUGUCAUCAUAAUCUUU` is recorded as 1.14.
For `UAAAGUUGUUCUGUUAACUUUUGUACCAAAUAGCAAUACAAACUAGUUGGAACAGUUGGAACUUACAUACAUGGGGACUGGAAAUCUCUAUUUUGUCCCUGAAUAAUAUU`, “RBNS enrichment (R)” read 0.272.
For `CAAAAACAACAAAGAUAAAAUCAAUUUGGAGCUUUAUAUGACAAAAAGGAAGAAGUCCAAAAAUAUAUAGCCUUCCCCCCUCCCACAUAUCUGAUCCAAAUAUUAAAUAU`, “RBNS enrichment (R)” read 0.535.
`UACGGGCAGGCUCUAGCAACUUUCCGUGUAUGGACCUCGUUUUUUGCUGUUUUGUGUUUAAUUAGUAUAUUGUUCAUGCCUCUCUUCUGCAGUGUCUCAUCUCAUAGACU` — result for “RBNS enrichment (R)”: 0.733.
`UUCUCUGUGUAGCCCUGGCUGUCCUGGAACUCACUUUGUAGACCAGGCUGGCCUCGAACUCAGAAAUCUGCCUGCCUCUGCCUCCCAAGUGCUGGGAUUAAAGGCGUGGG` — result for “RBNS enrichment (R)”: 0.243.
For `GAAUAAAGUUAUGUUCUGAUAGUUUGUACAGAAAAAAUAAAAUGGAUGCCCAUGUUUUAUUGCUAUUACUAAAUGUCAAGAUUGUAUGCUAUUAUGUCUUGUAAAUUUCU`, “RBNS enrichment (R)” read 7.49.
For `CAUGGGAAUGGUUUUGAGGACCUGGAUGAGGAAGAAGGCGUGGCAUCCUCCUGGCUUCUUACAGAAGAACUGUUGCAGAGUUCACAGCACAGAUGGGCAGAGAUGGUCCC`, “RBNS enrichment (R)” read 0.992.
Under “RBNS enrichment (R)”, `UUGUUGUAAGCUAACAAGUGGAGAAACACUUUUUUUUUUCAGAAAUGGUUUGGAUUAUUUAUAGUCCAUUUGUAAAAAAUAUUACAUCAUCUAGUUAAAAAAAAGAGUGU` is recorded as 0.412.
Under “RBNS enrichment (R)”, `UUGAUGUAAUACAUAGCUGUAUGGGGUUUUUUUUAGUAAGUUCUUUGAGCAUAAUUCACUUUAAAGUCAUUUUUCCAGCAAUGUUUAAAUUACUUUCUCAUUCUUUUAGU` is recorded as 0.672.
`UGUAUGCAUUCACCUUGCCUCUUGCACAAAUGUCAAAAAAAAGAUGGUAAUAUCUCAAAGAAAUGAACUUGUAGAUUACCAAGCAGUUUGCUAAAAAUUCAAUCUUUGAC` — result for “RBNS enrichment (R)”: 0.443.
`GAAGAGGAAGAAGAGGAAGAAUAGGAAGGCAGACUAGAAACCGGAGCACCCAUCAAGUCUGUCAGACUCACGGGGUGAGGGGUGGCCUGUUUGGAUUCUGUUAGGGAGGG` — result for “RBNS enrichment (R)”: 0.954.
`GGCAUGGUAUAUUAAAAUGAUUUUACUAAGAGAAAAAAUAUUUUUUUAAGAAUGCUCAGAAGAAAUUGAUAAUCUGUGUGAAUAUGUUUUAGAUGUUUAUAUACCUUUUG` — result for “RBNS enrichment (R)”: 6.45.

Sample 3 — method: EMSA with sequencing; molecule type: double-stranded DNA, one strand shown; matrix: in vitro; tested at: 10 and 20 nM; relative to: negative control set to 0; reading: higher = stronger binding
Target: Hepatocyte nuclear factor 3-alpha (Foxa1, Mus musculus, UniProt P35582, residues 1-468, full length assumed)
Setting: whole designed probe, mean of two concentrations, ends assumed
Constant ends, left off below: GTGAGCGGTGCCCATTGATGGGGAAC … TTTCACTGGGATCGTGGGGAC
Residues (chain): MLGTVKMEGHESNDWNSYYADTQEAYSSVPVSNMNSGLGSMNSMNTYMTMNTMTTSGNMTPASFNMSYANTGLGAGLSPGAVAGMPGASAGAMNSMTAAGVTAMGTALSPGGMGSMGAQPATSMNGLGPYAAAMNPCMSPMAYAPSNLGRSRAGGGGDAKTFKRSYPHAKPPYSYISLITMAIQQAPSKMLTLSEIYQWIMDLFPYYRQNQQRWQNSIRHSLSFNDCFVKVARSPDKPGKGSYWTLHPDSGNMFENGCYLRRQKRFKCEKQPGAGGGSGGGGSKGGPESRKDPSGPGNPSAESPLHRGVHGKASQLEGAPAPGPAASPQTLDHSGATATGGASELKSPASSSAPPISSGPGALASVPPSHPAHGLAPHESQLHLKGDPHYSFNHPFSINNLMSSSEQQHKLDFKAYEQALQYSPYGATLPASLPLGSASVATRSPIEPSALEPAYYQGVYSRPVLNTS
`ATCTTCCCCCTCTTCCTTGCCCCACCAGCTCACCTTCCCGGGTTATTTGCACAAAGGAAAATAAATAAAGCCGGCATTCGTTAACGCAGTTCTGGCGCAAACTGCTGTTTGCTCTGCATCTAACATGGTCCTTACGCGACGCCAGGCTCCGGGAGAGCAAAGCACCGTGTCAGGCGCATGATCCGGGCTCGCC`: “normalised bound fraction” 0.384 ratio.
Under “normalised bound fraction”, `TCAACTGTGCCATGTTAGCAGGAAAGCTGCCAGACACAATAAGTACTCTAACAGCGTGGCTGTGTTCCAAAAAAACTTAAATTACACACACTTAGATTACACACATAGGTGGCAAGCTGTAATTTTTTTATGTAATTTATGGTATTTTGCCATAGTTTGCTGACTCTTGATACAAATATGGAGACTTTTAAAG` is recorded as 0.205 ratio.
Under “normalised bound fraction”, `ATCTTCCCCCTCTTCCTTGCCCCACCAGCTCACCTACGGGGGTTATTTGCAGATAGGAAAATAAATAAAGCCGGCATTCGTTAACCCTCTTCTGGCGCAAACTGCTGTTTGCTCTGCATGAATCATGGTCCTTACGCGACGCCAGGCTCCGGGAGAGCAAAGCACCGTGTCAGGCGCATGATCCGGGCTCGCC` is recorded as 0.345 ratio.
`TGGGCTTCGTATAATTACAATTCGTAAAATCAGTTGGCCTAATACTGTCTGAATAAACTTTTATTTAAAAAAAGAAAAAACGAAAATGTTATATGTAAACAGGGACTCTGGGAAGATATGAAGAGTTGGTAGTCTCCACTCTCATAGAAAACAAAGCCCGAAGAGGCAGGGGTGGGAGGAGTCCTAAAGAAGA` — result for “normalised bound fraction”: 0.242 ratio.
For `TAGCTTTGAAAACTGTGAAAGGGGATAACCCATAATTTCTTTTTTGATAAAATGACATGCCCCAGGGGTGAGCTAGGTTTGCTTTGACAAGAAAGTAATCTAGGAGCAAGTGAAAGGAAATGAAAAATATATTACCAAACTCTCATCTTTCAGCTGCTGATGCTGCCTATTGTCAGCTGCAGCAGAGTGTAGA`, “normalised bound fraction” read -0.0424 ratio.
`ATCTTCCCCCTCTTCCTTGCCCCACCAGCTCACCTTCCCGGGTTATTTGCACAAAGGAAAATAAATAAAGCCGGCATTCGTTAACGCAGTTCTGGCGCAAACTGCTGTTTGCTCTGCATGAATCATGGTCCTTACGCGAGGCGTGGCTCCGGGAGAGCAAAGCACCGTGTCAGGCGCATGATCCGGGGTGGCC` — result for “normalised bound fraction”: 0.381 ratio.
Under “normalised bound fraction”, `ATCTTCCCCCTCTTCCTTGCCCCACCAGCTCACCTTCCCGGGTTATTTGCACAAAGGAAAATAAATAAAGCCGGCATTCGTTAACGCAGTTCTGGCGCAAACTGCTGTTTGCTCTGGATCTAACATGGTCCTTTGGCGACGCCAGGCTCCGGGAGAGCAAAGCACCGTGTCAGGGCCATGATCCGGGCTCGCC` is recorded as 0.378 ratio.
`ATCTTCCCCCTCTTCCTTGCCCCACCAGCTCACCTTCCCGGGTATATTGGAGATAGGAAAATAAATAAAGCCGGCATTCGTTAACCCTCTTCTGGCGCAAACTGCTGTTTGCTCTGGATGAATCATGGTCCTTTGGCGACGCCAGGCTCCGGGAGAGCAAAGCACCGTGTCAGGGCCATGATCCGGGGTGGCC`: “normalised bound fraction” 0.31 ratio.

Sample 4 — method: protein binding microarray; molecule type: double-stranded DNA, one strand shown; matrix: in vitro; tested at: not given; relative to: not given; reading: higher = stronger binding
Target: Histone acetyltransferase KAT6A, winged helix 1, GST fusion (KAT6A, Homo sapiens, UniProt Q92794, residues 1-85)
Setting: 8-mer, flanks averaged, mean of 2 arrays, mostly near background
Residues (chain): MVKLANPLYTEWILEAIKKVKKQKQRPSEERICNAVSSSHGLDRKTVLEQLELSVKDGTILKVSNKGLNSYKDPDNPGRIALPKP
For `ATCATGCC`, the E-score was -0.181.
`AGTGATTA` has an E-score of 0.00337.
The E-score of `CACGTTTA` is reported as -0.246.
`AGTCTCAT` gave an E-score of -0.212.
For `ATTGTGTG`, the E-score was -0.179.
`CATCTTGC` has an E-score of -0.0615.
`AACGCATA` gave an E-score of 0.0399.
`GCCTATAA` has an E-score of -0.116.
`CGCCATAG` gave an E-score of 0.111.
For `CCCTGTTA`, the E-score was -0.162.
`ACCCAAAT` has an E-score of -0.1.
The E-score of `AGGTGCGG` is reported as 0.213.
For `ACTGATCC`, the E-score was -0.182.
With `CCAAGTAG` the E-score was -0.245.
`CCCCGGTC` gave an E-score of 0.219.
With `ATGCTCCG` the E-score was 0.155.

Sample 5 — target: CCND1, cyclin fold, Cln2 fusion (human); method: yeast growth competition, sequencing; matrix: yeast; setting: weak parent motif; relative to: not given; reading: higher = stronger binding
Starting sequence: MASTL docking peptide (human); PMIAKNLMCELDE
`C9S` — result for “normalised enrichment score”: 0.21.
For `C9E`, “normalised enrichment score” read -0.437.
`I3F` — result for “normalised enrichment score”: 0.149.
Under “normalised enrichment score”, `L11Y` is recorded as 0.327.
For `N6E`, “normalised enrichment score” read 0.00955.
Under “normalised enrichment score”, `C9T` is recorded as 0.0693.
For `I3V`, “normalised enrichment score” read 0.213.
For `C9P`, “normalised enrichment score” read 0.234.
For `N6W`, “normalised enrichment score” read 0.0646.
`E10V` — result for “normalised enrichment score”: -0.11.
`A4W`: “normalised enrichment score” 0.604.
For `M8N`, “normalised enrichment score” read -0.0685.
For `N6D`, “normalised enrichment score” read 0.253.
Under “normalised enrichment score”, `E10D` is recorded as 0.147.
Under “normalised enrichment score”, `C9A` is recorded as 0.227.
Under “normalised enrichment score”, `M8V` is recorded as 0.376.

Single results of other studies
For `PhoQ, residues 284 288 289 292 302 303 TTCLQL`, the fold induction was 3.86 (PhoP, residues 12 14 15 18 19 TPLRH (Escherichia coli, UniProt P23836); Sort-seq, measured: YFP reporter; E. coli; PhoQ-PhoP variant library, with: 10 µM Mg2+; relative to: high Mg2+ state, higher = stronger signaling).

For quick reference, copied from above (sample 5):
`I3F` — result for “normalised enrichment score”: 0.149.
For `C9E`, “normalised enrichment score” read -0.437.
Under “normalised enrichment score”, `E10D` is recorded as 0.147.
`A4W`: “normalised enrichment score” 0.604.
